Published values collected from several papers.
Each numbered part is a random draw from the data of one study; scales do not carry over between parts. Positions count from the first letter of the parent shown.

Sample 1
Target: UDP-N-acetylglucosamine--peptide N-acetylglucosaminyltransferase 110 kDa subunit (OGT, Homo sapiens, UniProt O15294)
UniProt O15294, sequence (whole entry, looked up): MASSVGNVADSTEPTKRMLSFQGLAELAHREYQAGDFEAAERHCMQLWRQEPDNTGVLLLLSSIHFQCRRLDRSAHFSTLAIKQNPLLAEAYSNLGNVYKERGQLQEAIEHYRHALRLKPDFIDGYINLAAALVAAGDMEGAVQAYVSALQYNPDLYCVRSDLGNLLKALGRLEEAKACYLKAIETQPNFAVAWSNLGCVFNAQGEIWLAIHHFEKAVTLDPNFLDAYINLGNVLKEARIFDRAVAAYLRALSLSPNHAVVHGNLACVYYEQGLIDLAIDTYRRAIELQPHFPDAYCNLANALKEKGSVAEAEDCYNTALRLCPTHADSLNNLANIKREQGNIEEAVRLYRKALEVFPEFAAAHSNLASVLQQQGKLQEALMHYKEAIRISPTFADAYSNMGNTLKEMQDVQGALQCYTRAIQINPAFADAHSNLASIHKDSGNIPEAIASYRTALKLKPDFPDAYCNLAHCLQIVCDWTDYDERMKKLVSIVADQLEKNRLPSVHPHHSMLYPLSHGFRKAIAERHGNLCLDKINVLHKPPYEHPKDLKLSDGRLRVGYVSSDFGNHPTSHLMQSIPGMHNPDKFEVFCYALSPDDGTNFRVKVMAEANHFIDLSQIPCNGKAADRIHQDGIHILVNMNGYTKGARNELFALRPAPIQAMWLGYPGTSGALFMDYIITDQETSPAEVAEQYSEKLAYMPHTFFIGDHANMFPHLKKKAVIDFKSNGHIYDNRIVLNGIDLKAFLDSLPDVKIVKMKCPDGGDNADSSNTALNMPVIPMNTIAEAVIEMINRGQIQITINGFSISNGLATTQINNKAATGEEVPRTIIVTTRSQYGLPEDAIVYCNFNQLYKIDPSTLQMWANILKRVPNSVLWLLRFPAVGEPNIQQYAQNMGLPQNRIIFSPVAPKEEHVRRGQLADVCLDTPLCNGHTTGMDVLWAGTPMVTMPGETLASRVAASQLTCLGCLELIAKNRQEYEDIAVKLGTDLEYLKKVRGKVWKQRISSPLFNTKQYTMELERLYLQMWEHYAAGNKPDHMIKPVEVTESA
Observed: binding
Technique: phage display NGS
Molecule type: peptide
Relative to: input library
| Molecule | minimum log2 enrichment ratio |
| --- | --- |
| VRFPPQYQMVYKTTV | 4.87 |
| SWMPFYQIEFSQGSS | 3.89 |
| EFFPPAYQLVVPYGD | 3.23 |
| HPNPPKDHWFRTHH | 1.31 |
| LIARPYQPLYQIIPF | 2.41 |
| THQHAHHVYSIDPSG | 2.01 |
| HQQHSMHFKWNIIQA | 1.91 |
| SKSHHTEKFWHYTHV | 3 |
| HVQDLAVYHSHHWH | 1.85 |
| HQHQHIDHHYLFEG | 2.42 |
| VADRFLPIYQLTTRG | 2.59 |
| HQFDGHSNLHIHSIE | 1.8 |
| SRQHHHYVQAMPYRD | 1.25 |
| HWDHWQHTINHNVDG | 2.9 |
| IERDNQYHPMYIIDI | 2.35 |
| YIERTSVMPQYQITY | 4.39 |
| VVQQEYRPRYQISFK | 2.03 |
| LISVPPQYQIRYWKD | 3.79 |
| HGIMQEDHGGTHHHY | 1.62 |
| WSIHHMPRHESKYTD | 2.87 |
| RMYHNHVTDRHVTQ | 1.59 |
| HVTSPMQLTNWHFHA | 1.36 |
| HTKGFMHRIQHHYYF | 3.24 |
| GADYLPKYQVVYNVR | 2.97 |
| YPMHNHHVMYDFHAD | 1.98 |

Sample 2
Target: vanadate, free oxyanion
Technique: microfluidic competitive inhibition
Matrix: in vitro, cell-free expressed
Concentration: not given
Setting: derived from inhibition constants, unchanged parent 676 nM
Direction: lower = stronger binding
Parent: PafA, mature enzyme, eGFP fusion (Elizabethkingia meningoseptica, UniProt Q9KJX5); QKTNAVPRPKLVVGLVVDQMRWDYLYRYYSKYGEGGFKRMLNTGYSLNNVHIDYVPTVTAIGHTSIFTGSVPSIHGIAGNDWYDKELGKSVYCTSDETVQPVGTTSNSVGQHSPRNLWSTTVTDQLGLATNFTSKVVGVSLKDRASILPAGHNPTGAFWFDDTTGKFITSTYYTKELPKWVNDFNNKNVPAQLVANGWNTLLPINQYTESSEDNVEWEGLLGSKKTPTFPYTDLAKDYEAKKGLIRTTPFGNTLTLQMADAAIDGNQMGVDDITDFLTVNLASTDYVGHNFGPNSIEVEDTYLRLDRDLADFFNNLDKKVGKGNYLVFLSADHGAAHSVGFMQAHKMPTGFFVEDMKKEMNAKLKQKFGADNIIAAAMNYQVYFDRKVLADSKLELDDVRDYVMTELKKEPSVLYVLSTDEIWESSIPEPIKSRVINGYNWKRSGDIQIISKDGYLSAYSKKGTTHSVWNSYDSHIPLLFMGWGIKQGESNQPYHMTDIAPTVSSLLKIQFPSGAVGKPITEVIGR
| Variant | oxyanion analog dissociation constant |
| --- | --- |
| I427V | 779 nM |
| A60V | 6.42 µM |
| H112G | 2.96 µM |
| I499G | 1.26 µM |
| N324G | 878 nM |
| N182G | 869 nM |
| A191V | 776 nM |
| F167V | 917 nM |
| E212G | 575 nM |
| G138V | 833 nM |
| T57G | 374 nM |
| I61G | 381 nM |
| K38G | 532 nM |
| V189G | 588 nM |
| H63G | 2.83 µM |
| A500V | 931 nM |
| V503A | 576 nM |
| L141V | 1.21 µM |
| T174V | 626 nM |
| I147V | 837 nM |
| W469V | 510 nM |
| T228G | 839 nM |
| F291G | 468 nM |
| L394V | 799 nM |
| E424G | 650 nM |

Sample 3
Target: RING finger protein unkempt homolog, zinc fingers 1-6, GST-SBP tag (UNK, Homo sapiens, UniProt Q9C0B0, residues 30-357)
Technique: RNA Bind-n-Seq
Molecule type: RNA
Matrix: in vitro
Concentration: not given
Setting: RNA with constant flanks, human and mouse sites, ends assumed
Relative to: input RNA pool
Direction: higher = stronger binding
Residues (chain): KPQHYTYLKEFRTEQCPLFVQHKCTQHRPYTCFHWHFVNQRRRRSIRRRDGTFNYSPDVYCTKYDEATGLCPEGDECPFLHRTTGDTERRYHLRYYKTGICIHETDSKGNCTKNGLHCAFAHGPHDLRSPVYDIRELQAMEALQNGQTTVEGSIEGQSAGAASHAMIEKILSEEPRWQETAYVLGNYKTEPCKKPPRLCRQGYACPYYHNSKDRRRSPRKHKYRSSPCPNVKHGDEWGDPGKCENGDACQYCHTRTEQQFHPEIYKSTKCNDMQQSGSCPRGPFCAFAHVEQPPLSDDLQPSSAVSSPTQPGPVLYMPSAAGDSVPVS
| Sequence | bound/input enrichment [ratio] |
| --- | --- |
| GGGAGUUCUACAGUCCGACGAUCAUAUGUCUUAUAUUUUCCUGUGACUCUGGAAACUAAACCAUUGUGUGUCUUGUCGUGUCCUAGUUGAGCUGGGGCCUAGCAGCUUCCUUCCAGUGGGUGUGGAGCAAACGUGUAUGUCGCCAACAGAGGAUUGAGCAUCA | 0.291 |
| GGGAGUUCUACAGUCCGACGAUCUGUCUUCAAUGCAUUCCAUGGCAUCACAUCUGUCCUGGGGCCUGACCCGUCCACCCUUCAGUGUCUCUGUCUUUUAAGAUCUUCAACUGCUUCUUUAUCCCCGCCCCUCCAGCUUAUUUUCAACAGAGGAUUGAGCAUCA | 0.366 |
| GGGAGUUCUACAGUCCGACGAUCGCCGCUGGGGAUGCCAAGUCCAUCAUCACAUGCAGGGUGUCCCUUCUGGACGGUACAGAUGUCAGUGUGGACUUGCCGAAAAAAGCCAAAGGACAGGAGCUGUUUGACCAAAUCAUGUAUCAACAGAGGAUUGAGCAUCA | 0.142 |
| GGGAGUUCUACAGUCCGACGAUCUAAAAAGUGUUUUGAAUUGUGUCUUAAUCUCUCCAUAUUCAACUAUUCUUCAUUUACAACAAUAGUGACACCAGUAAUUAUGAGAGGCUGUCAUAUAUCAAAGCAGCUCAGGUGGGAUCACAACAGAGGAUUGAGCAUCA | 0.695 |
| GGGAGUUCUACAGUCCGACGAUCGACGGUCCAUCCAGGGUGUCUUACACCUUACAGCGCCAGACUAUCUUCAACAUUUCCCUUAUGAAACUGUAUAACCACAGGCCUCUGACAGAGCCCAGCUUGCAGAAGACUGUCUUAAUUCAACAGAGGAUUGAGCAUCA | 0.0966 |
| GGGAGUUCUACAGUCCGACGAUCGCUUUUGAUGACGCAAUUGCAGAACUGGACACGCUGAGUGAAGAAAGCUAUAAGGACUCUACGCUCAUCAUGCAGCUGCUACGUGAUAACCUGACGCUGUGGACCUCAGACAUGCAGGGUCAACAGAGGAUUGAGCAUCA | 0.123 |
| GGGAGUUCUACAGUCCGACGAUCAAAAAAUACAAAGAAAAAUAUAAAGUAAAAGACAGGAUAGAAGAAAAAACAAGAGAUGGAAAGGACAGAGGACGAGAUUUUGAACGACAAAGAGAAAAGAGAGACAAGCCAAGGUCUACUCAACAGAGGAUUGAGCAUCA | 1.29 |
| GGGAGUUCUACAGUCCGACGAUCCCAGUGAGAAAAAGAGUGCUGGAAAAACGUGGAGACGACUUUAAAAAGGAGGGGAAAAUUUAUAGAUUAAGGACUCAAGAUGAUGGUGAAGAUGAAAACAACACUUGGAAUGGAAAUUCCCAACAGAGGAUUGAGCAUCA | 0.612 |

Sample 4
Target: CCNE2, cyclin fold, Cln2 fusion (human)
Technique: yeast growth competition, sequencing
Matrix: yeast
Setting: strong parent motif
Relative to: not given
Direction: higher = stronger binding
Parent: viral docking peptide; KGVKRKLFAEDSS
| Variant | normalised enrichment score |
| --- | --- |
| KGVKRKLFASDSS [E10S] | 5.94 |
| KGVKNKLFAEDSS [R5N] | -0.331 |
| KSVKRKLFAEDSS [G2S] | 6.84 |
| KGVKRKLFAEMSS [D11M] | 5.41 |
| KGVKRPLFAEDSS [K6P] | 0.594 |
| KGVKRKLFREDSS [A9R] | 6.41 |
| KGKKRKLFAEDSS [V3K] | 0.585 |
| KGVKRKLFFEDSS [A9F] | 6.48 |
| KGVRRKLFAEDSS [K4R] | 7.67 |
| KGVKRKLFAEDGS [S12G] | 6.26 |
| KGVSRKLFAEDSS [K4S] | 4.47 |
| KGVKRKLRAEDSS [F8R] | 0.274 |
| KGVKRSLFAEDSS [K6S] | 1.93 |
| KGVKRKEFAEDSS [L7E] | 0.612 |
| KGWKRKLFAEDSS [V3W] | 3.06 |
| KGVKRKYFAEDSS [L7Y] | 0.379 |
| KGVKRKLFADDSS [E10D] | 7.27 |
| KGVKRKLFWEDSS [A9W] | 6 |
| KGVKRKLFAFDSS [E10F] | 4.75 |
| KGVGRKLFAEDSS [K4G] | 0.69 |
| KGVKRKLLAEDSS [F8L] | 0.263 |
| KGVKRKLIAEDSS [F8I] | 0.373 |
| KGVKRKWFAEDSS [L7W] | 0.0528 |
| KKVKRKLFAEDSS [G2K] | 6.27 |
| KGVKRKLFGEDSS [A9G] | 5.98 |

Some of these lines once more (sample 3):
| Sequence | bound/input enrichment [ratio] |
| --- | --- |
| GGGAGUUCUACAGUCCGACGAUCUGUCUUCAAUGCAUUCCAUGGCAUCACAUCUGUCCUGGGGCCUGACCCGUCCACCCUUCAGUGUCUCUGUCUUUUAAGAUCUUCAACUGCUUCUUUAUCCCCGCCCCUCCAGCUUAUUUUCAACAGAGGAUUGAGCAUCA | 0.366 |
| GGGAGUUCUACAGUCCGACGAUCGCCGCUGGGGAUGCCAAGUCCAUCAUCACAUGCAGGGUGUCCCUUCUGGACGGUACAGAUGUCAGUGUGGACUUGCCGAAAAAAGCCAAAGGACAGGAGCUGUUUGACCAAAUCAUGUAUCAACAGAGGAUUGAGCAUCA | 0.142 |
| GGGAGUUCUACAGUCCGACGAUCUAAAAAGUGUUUUGAAUUGUGUCUUAAUCUCUCCAUAUUCAACUAUUCUUCAUUUACAACAAUAGUGACACCAGUAAUUAUGAGAGGCUGUCAUAUAUCAAAGCAGCUCAGGUGGGAUCACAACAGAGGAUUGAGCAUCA | 0.695 |
| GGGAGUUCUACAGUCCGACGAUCGACGGUCCAUCCAGGGUGUCUUACACCUUACAGCGCCAGACUAUCUUCAACAUUUCCCUUAUGAAACUGUAUAACCACAGGCCUCUGACAGAGCCCAGCUUGCAGAAGACUGUCUUAAUUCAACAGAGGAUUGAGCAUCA | 0.0966 |
| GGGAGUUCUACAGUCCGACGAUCGCUUUUGAUGACGCAAUUGCAGAACUGGACACGCUGAGUGAAGAAAGCUAUAAGGACUCUACGCUCAUCAUGCAGCUGCUACGUGAUAACCUGACGCUGUGGACCUCAGACAUGCAGGGUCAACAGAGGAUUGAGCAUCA | 0.123 |
